Measured values of several laboratories.
Protocols differ between the studies behind these lines. Values joined by “and” are separate records of one study, mostly repeats; a detail may differ. ± marks the error that the study gave.
Sequence of UniProt P11388 (whole entry, looked up): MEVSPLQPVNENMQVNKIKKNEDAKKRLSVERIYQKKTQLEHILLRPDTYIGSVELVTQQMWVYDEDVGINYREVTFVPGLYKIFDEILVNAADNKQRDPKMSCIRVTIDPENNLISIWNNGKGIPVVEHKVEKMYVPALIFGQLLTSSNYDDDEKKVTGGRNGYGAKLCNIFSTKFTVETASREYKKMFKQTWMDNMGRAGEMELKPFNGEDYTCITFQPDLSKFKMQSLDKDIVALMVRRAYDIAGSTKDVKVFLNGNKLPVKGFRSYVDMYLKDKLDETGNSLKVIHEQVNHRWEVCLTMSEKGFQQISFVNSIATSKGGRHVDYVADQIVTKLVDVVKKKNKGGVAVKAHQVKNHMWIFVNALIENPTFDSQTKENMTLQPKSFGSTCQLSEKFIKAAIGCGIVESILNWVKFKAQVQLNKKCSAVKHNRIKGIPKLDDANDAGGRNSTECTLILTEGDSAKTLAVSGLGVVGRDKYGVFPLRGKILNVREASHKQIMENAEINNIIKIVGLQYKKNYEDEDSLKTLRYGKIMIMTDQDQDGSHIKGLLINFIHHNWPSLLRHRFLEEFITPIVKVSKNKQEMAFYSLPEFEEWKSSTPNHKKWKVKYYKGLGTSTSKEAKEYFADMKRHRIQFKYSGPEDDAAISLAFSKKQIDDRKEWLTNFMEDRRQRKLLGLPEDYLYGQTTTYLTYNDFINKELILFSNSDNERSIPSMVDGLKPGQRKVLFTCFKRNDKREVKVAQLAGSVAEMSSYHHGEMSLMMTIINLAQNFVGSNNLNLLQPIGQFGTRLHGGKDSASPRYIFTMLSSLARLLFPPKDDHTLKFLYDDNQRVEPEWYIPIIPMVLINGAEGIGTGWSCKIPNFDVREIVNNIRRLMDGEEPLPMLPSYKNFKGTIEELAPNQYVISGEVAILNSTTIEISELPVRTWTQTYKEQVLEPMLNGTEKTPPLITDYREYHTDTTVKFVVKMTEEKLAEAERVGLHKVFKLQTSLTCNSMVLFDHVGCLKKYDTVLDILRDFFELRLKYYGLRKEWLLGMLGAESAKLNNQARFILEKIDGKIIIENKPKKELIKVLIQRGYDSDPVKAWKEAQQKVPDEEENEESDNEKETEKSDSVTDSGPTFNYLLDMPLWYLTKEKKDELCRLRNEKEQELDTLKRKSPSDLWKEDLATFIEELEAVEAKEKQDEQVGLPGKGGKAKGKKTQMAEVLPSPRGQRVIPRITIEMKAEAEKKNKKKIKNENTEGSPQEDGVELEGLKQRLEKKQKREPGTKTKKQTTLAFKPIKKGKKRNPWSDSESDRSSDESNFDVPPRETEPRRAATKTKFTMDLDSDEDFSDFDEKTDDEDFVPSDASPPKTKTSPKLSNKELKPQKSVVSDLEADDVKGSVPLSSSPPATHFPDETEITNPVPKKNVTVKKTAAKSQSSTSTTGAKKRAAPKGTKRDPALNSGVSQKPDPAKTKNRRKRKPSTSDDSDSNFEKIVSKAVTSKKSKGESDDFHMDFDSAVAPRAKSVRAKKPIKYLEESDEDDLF

Molecule | tested on | assay | system | setting | how to read | measurement | value
COc1cc([C@@H]2c3cc4c(cc3[C@@H](O[C@@H]3O[C@@H]5CO[C@@H](C)O[C@H]5[C@H](O)[C@H]3O)[C@H]3COC(=O)[C@H]23)OCO4)cc(OC)c1O | DNA topoisomerase 2-alpha (TOP2A, Homo sapiens, UniProt P11388) | DNA cleavage | – | 12.5 µM, replicate 1 | – | linear DNA | 12.7%
Cc1cccc(Nc2ccccc2C(=O)O)c1C | – | vericiguat glucuronidation, inhibitor, item: metabolite M-1 formation | human kidney microsomes | 10.0 µM | baseline: no inhibitor | remaining activity | 73%
O=C(CCCCCCC(=O)Nc1ccccc1)NO | – | BCRP transport function, item: pheophorbide A accumulation | human, leukaemic blasts ex vivo | concentration not given, 3 h, added: Ko143 10 µM | baseline: without Ko143 | percent change | -3.9% and -4.2% and -4.3% and -2.1% and -1.2% and 11.5%
CCCCCCCC(=O)OCC(COC(=O)CCCCCCC)OC(=O)CCCCCCC | – | antagonist, qPCR in vivo, item: Shp and Bsep mRNA | Oryzias latipes | dose not given | – | activity call | active
OC[C@H]1O[C@@H](O[C@@H]2[C@@H](O)[C@H](O[C@@H]3[C@@H](O)[C@H](O[C@H]4[C@H](O)[C@@H](CO)OC(O)[C@@H]4O)O[C@H](CO)[C@H]3O)O[C@H](CO)[C@H]2O)[C@H](O)[C@@H](O)[C@@H]1O (stereo partly shown) | Bacteroides thetaiotaomicron | binding, ITC | – | pH 7.0, 25 °C, middle domain | – | -TΔS | -13.9 kcal/mol
N#CCC1CCN(c2nc(Nc3ccc(N4CCC(O)CC4)cc3)c3c(=O)[nH]ncc3n2)CC1 | – | vs placebo, Olink multiplex | human, serum | 80 mg, day 29, unit not given | baseline: placebo | osteopontin level difference | -1.37
Fc1ccccc1Cc1nc(-c2nc(C(F)(F)F)n[nH]2)cn2ccnc12 | – | – | healthy volunteers | 0.3 mg, single ascending dose | baseline: placebo | choice reaction time | -5.15 ms
COC(=O)Nc1c(N)nc(-c2nn(Cc3ccccc3F)c3ncc(F)cc23)nc1N | – | – | healthy white men | dose not given, day 15, 360 h, LS mean difference, added: sildenafil 100 mg | baseline: placebo | seated HR maximum increase | 1.08 bpm
COC(=O)N[C@H](C(=O)N[C@@H](Cc1ccccc1)[C@@H](O)CN(Cc1ccc(-c2ccccn2)cc1)NC(=O)[C@@H](NC(=O)OC)C(C)(C)C)C(C)(C)C | – | vericiguat glucuronidation, inhibitor, item: metabolite M-1 formation | human kidney microsomes | 5.0 µM | baseline: no inhibitor | remaining activity | 94.8%
CO/N=C(\C(=O)N[C@@H]1C(=O)N2C(C(=O)O)=C(COC(C)=O)CS[C@H]12)c1csc(N)n1 | Pseudomonas aeruginosa | – | clinical isolate RKI-No_597/16 | – | – | MIC | > 16 µg/mL
CC1COc2ccccc2N1C(=O)C(Cl)Cl (stereo not shown) | carboxylesterase | – | female rhesus monkey liver microsomes | 5 µM, 30 min, pH 7.4, without NADPH | – | remaining compound | 68 ± 1%
CO/N=C1\C[C@]2(C[C@@H]3C[C@@H](C/C=C(\C)C[C@@H](C)/C=C/C=C4\CO[C@@H]5[C@H](O)C(C)=C[C@@H](C(=O)O3)[C@]45O)O2)O[C@H](/C(C)=C/C(C)C)[C@H]1C | – | antagonist, qPCR in vivo, item: Shp and Bsep mRNA | Oryzias latipes | dose not given | – | activity call | toxic
hecogenin | – | vericiguat glucuronidation, inhibitor, item: metabolite M-1 | human intestinal microsomes | 10.0 µM | baseline: control | remaining activity | 96.6%
